# Published values collected from several papers.
# Protocols differ between the studies behind these lines.
# Cell line: U2OS
Structure (SMILES),observed,mode,method,time,setting,endpoint,value
Cn1ncc(-c2ccc3c(=O)[nH]nc(CN)c3c2)c1-c1c(F)c(Cl)cc(OC2CC2)c1C#N,cell viability,inhibitor,CellTiter-Glo,120 h,baseline-subtracted,IC50,4570 nM
O=C(Nc1cc(OCCN2CCCC2)c2ccccc2n1)c1cccc(C(=O)Nc2cc(OCCN3CCCC3)c3ccccc3n2)n1,cell growth or viability,,ATP luminescence,72 h,,IC50,800 nM
CCN(C(=O)c1cc(F)ccc1Oc1nncnc1N1CCC2(C1)CN([C@H](CCCN(C)CCOC)C(C)C)C2)C(C)C,cell growth or viability,,,72 h,,GI50,> 10000 nM
CC(C)=CC1OC(C)(C)C2C=C3C(=O)C(Cl)=CC(O)C3C3C(O)C4OC4C(=O)C132 (stereo not drawn),cell growth or viability,,MTS,,,IC50,3560 nM
NCCCn1cc(COc2cc(C(=O)Nc3cc(OCCN)c4ccccc4n3)nc(C(=O)Nc3cc(OCCN)c4ccccc4n3)c2)nn1,cell growth or viability,,ATP luminescence,72 h,,IC50,> 40000 nM
CC(C)c1ccc(N(C)c2ccc3c(c2)OCC[C@H]3CNc2cnccc2C(=O)O)cc1,cell viability,,CellTiter-Glo,7 days,,IC50,9.01 nM
O=c1c(-c2cnn(-c3ccccc3)c2)c(C(F)(F)F)oc2c(O)c(O)ccc12,apoptosis,,annexin V flow cytometry,,,EC50,~78000 nM
NCCOc1cc(NC(=O)c2cc(Cl)cc(C(=O)Nc3cc(OCCN)c4ccccc4n3)n2)nc2ccccc12,cell growth or viability,,ATP luminescence,72 h,,IC50,800 nM
CCN1CCN(Cc2ccc(C(=O)Nc3ccc(C)c(NCc4cnc5[nH]ccc5c4OC)c3)cc2C(F)(F)F)CC1,cell growth or viability,,,,,GI50,1200 nM

# For quick reference, copied from above:
Structure (SMILES),observed,mode,method,time,setting,endpoint,value
O=c1c(-c2cnn(-c3ccccc3)c2)c(C(F)(F)F)oc2c(O)c(O)ccc12,apoptosis,,annexin V flow cytometry,,,EC50,~78000 nM
